Results of several laboratories.
± gives the spread as reported.

CCS(=O)(=O)[C@H]1[C@H](O)[C@@H](N)[C@@H](O[C@H]2[C@H](O[C@@H]3O[C@H](CO)[C@@H](O[C@H]4O[C@@H](CN)[C@@H](O)[C@H](O)[C@H]4N)[C@H]3O)[C@@H](O)[C@H](N)C[C@@H]2N)O[C@@H]1CO — IC50 (bacterial hybrid ribosome, human cytoplasmic A site; cell-free translation, inhibitor): 136 µg/mL
CCCO[C@H]1[C@H](O)[C@@H](N)[C@@H](O[C@H]2[C@H](O[C@@H]3O[C@H](CO)[C@@H](O[C@H]4O[C@@H](CN)[C@@H](O)[C@H](O)[C@H]4N)[C@H]3O)[C@@H](O)[C@H](N)C[C@@H]2N)O[C@@H]1CO — IC50 (Mycobacterium smegmatis ribosome G1491C; translation, cell-free luciferase synthesis): 289 ± 149 µg/mL
CC(=O)N[C@H]1CSC(=O)[C@H](Cc2ccccc2)NC(=O)[C@H](Cc2ccccc2)NC(=O)CCCCCCCCNC1=O — IC50 (AgrC (Staphylococcus aureus); reporter gene, inhibitor; Staphylococcus aureus, AH1747 (MW2); 24 h): 125 nM
C=CCO[C@H]1[C@H](O)[C@@H](N)[C@@H](O[C@H]2[C@H](O[C@@H]3O[C@H](CO)[C@@H](O[C@H]4O[C@@H](CN)[C@@H](O)[C@H](O)[C@H]4N)[C@H]3O)[C@@H](O)[C@H](N)C[C@@H]2N)O[C@@H]1CO — IC50 (Mycobacterium smegmatis ribosome G1491C; translation, cell-free luciferase synthesis): 269 ± 18.9 µg/mL
CC[S+]([O-])C1C(CO)OC(OC2C(N)CC(N)C(O)C2OC2OC(CO)C(OC3OC(CN)C(O)C(O)C3N)C2O)C(N)C1O (mixture of isomers) — IC50 (bacterial hybrid ribosome, human mitochondrial A site; cell-free translation, inhibitor): 118 µg/mL
CC(=O)N[C@H]1CSC(=O)[C@H](Cc2ccccc2)NC(=O)[C@H](Cc2ccccc2)NC(=O)COCCOCCNC1=O — IC50 (AgrC (Staphylococcus aureus); reporter gene, inhibitor; Staphylococcus aureus, AH1872 (MN EV); 24 h): 5940 nM
Cc1cc(O)cc(C)c1C[C@@H]1NC[C@H](CCCCN)NC(=O)[C@H](Cc2ccccc2)NC(=O)[C@@H](CCCNC(=N)N)NC1=O — IC50 (mu opioid receptor, guinea pig; electrically evoked contraction; guinea pig ileum): 2510 ± 360 nM
NC[C@@H]1O[C@H](O[C@H]2[C@@H](O)[C@H](O[C@@H]3[C@@H](O)[C@H](N)C[C@H](N)[C@H]3O[C@H]3O[C@H](CO)[C@@H](SCCF)[C@H](O)[C@H]3N)O[C@@H]2CO)[C@H](N)[C@@H](O)[C@@H]1O — IC50 (bacterial hybrid ribosome, human mitochondrial A site; cell-free translation, inhibitor): 102 µg/mL
NC[C@@H]1O[C@H](O[C@H]2[C@@H](O)[C@H](O[C@@H]3[C@@H](O)[C@H](N)C[C@H](N)[C@H]3O[C@H]3O[C@H](CO)[C@@H](OCCCO)[C@H](O)[C@H]3N)O[C@@H]2CO)[C@H](N)[C@@H](O)[C@@H]1O — IC50 (Mycobacterium smegmatis ribosome G1491C; translation, cell-free luciferase synthesis): > 700 µg/mL
CC(=O)NC1C(OC2OC(CC(O)C3OC(n4ccc(=O)[nH]c4=O)C(O)C3O)C(O)C(O)C2NC(=O)COCc2ccc(N3CCC(Oc4ccc(OC(F)(F)F)cc4)CC3)cc2)OC(CO)C(O)C1O (centres unmarked) — IC50 (MraY; enzyme activity, inhibitor): > 50000 nM
CC(C)S[C@H]1[C@H](O)[C@@H](N)[C@@H](O[C@H]2[C@H](O[C@@H]3O[C@H](CO)[C@@H](O[C@H]4O[C@@H](CN)[C@@H](O)[C@H](O)[C@H]4N)[C@H]3O)[C@@H](O)[C@H](N)C[C@@H]2N)O[C@@H]1CO — IC50 (wild-type bacterial ribosome; cell-free translation, inhibitor): 0.1 µg/mL
CC(=O)N[C@H]1CSC(=O)[C@H](Cc2ccccc2)NC(=O)[C@H](Cc2ccccc2)NC(=O)CCCCCCCNC1=O — IC50 (AgrC (Staphylococcus aureus); reporter gene, inhibitor; Staphylococcus aureus, AH1677 (USA300 LAC); 24 h): 340 nM
CCCS[C@H]1[C@H](O)[C@@H](N)[C@@H](O[C@H]2[C@H](O[C@@H]3O[C@H](CO)[C@@H](O[C@H]4O[C@@H](CN)[C@@H](O)[C@H](O)[C@H]4N)[C@H]3O)[C@@H](O)[C@H](N)C[C@@H]2N)O[C@@H]1CO — IC50 (bacterial hybrid ribosome, human mitochondrial A1555G A site; cell-free translation, inhibitor): 110 µg/mL
CCCCCO[C@H]1[C@H](O)[C@@H](N)[C@@H](O[C@H]2[C@H](O[C@@H]3O[C@H](CO)[C@@H](O[C@H]4O[C@@H](CN)[C@@H](O)[C@H](O)[C@H]4N)[C@H]3O)[C@@H](O)[C@H](N)C[C@@H]2N)O[C@@H]1CO — IC50 (Mycobacterium smegmatis ribosome G1491C; translation, cell-free luciferase synthesis): 230 ± 32.3 µg/mL
CC(=O)N[C@H]1CNC(=O)[C@H](Cc2ccccc2)NC(=O)[C@H](Cc2ccccc2)NC(=O)COCCOCCNC1=O — IC50 (AgrC (Staphylococcus aureus); reporter gene, inhibitor; Staphylococcus aureus, AH1872 (MN EV); 24 h): > 10000 nM
NC[C@@H]1O[C@H](O[C@H]2[C@@H](O)[C@H](O[C@@H]3[C@@H](O)[C@H](N)C[C@H](N)[C@H]3O[C@H]3O[C@@H]4COCO[C@H]4[C@H](O)[C@H]3N)O[C@@H]2CO)[C@H](N)[C@@H](O)[C@@H]1O — IC50 (Mycobacterium smegmatis ribosome G1491C; translation, cell-free luciferase synthesis): 522 ± 44.6 µg/mL
NC[C@@H]1O[C@H](O[C@H]2[C@@H](O)[C@H](O[C@@H]3[C@@H](O)[C@H](N)C[C@H](N)[C@H]3O[C@H]3O[C@H](CO)[C@@H](CCO)[C@H](O)[C@H]3N)O[C@@H]2CO)[C@H](N)[C@@H](O)[C@@H]1O — IC50 (wild-type bacterial ribosome; cell-free translation, inhibitor): 0.03 µg/mL
CC[C@H](C)[C@H](NC(=O)[C@@H](NC(=O)[C@H](CCCCN)NC(=O)[C@@H](NC(=O)[C@@H]1CCCN1[C@@H]1CN(C(=O)[C@@H](NC(=O)[C@@H](NC(=O)[C@@H](NC(=O)[C@@H](NC(=O)[C@@H](NC(=O)[C@@H](N)CCCCN)C(C)C)C(C)C)C(C)C)[C@@H](C)CC)[C@@H](C)O)CC[C@H]1NS(=O)(=O)c1ccc(C)cc1)[C@@H](C)O)C(C)C)C(=O)N[C@@H](CC(C)C)C(=O)N[C@@H](Cc1c[nH]cn1)C(N)=O — IC50 (Tau-ΔK280 microtubule interaction; Tau effective diffusion; differentiated PC-12 expressing Tau-ΔK280; 24 h, DMSO 0.125%): 24000 nM
CC[C@H](C)[C@H](NC(=O)[C@H](C)NC(=O)[C@@H](N)Cc1c[nH]cn1)C(=O)N[C@@H](Cc1ccc(O)cc1)C(=O)N1CCC[C@H]1C(=O)N[C@@H](CCCNC(=N)N)C(=O)N[C@@H](Cc1c[nH]cn1)C(=O)N[C@H](CO)C(=O)N[C@H](Cc1c[nH]c2ccccc12)C(=O)N[C@@H](C(=O)N[C@H](Cc1c[nH]c2ccccc12)C(=O)N[C@H](CCC(=O)O)C(=O)N[C@H](CCCCN)C(=O)N[C@H](CCCCN)C(=O)N[C@H](CC(C)C)C(=O)N[C@H](CCC(=O)O)C(=O)N[C@@H](C(=O)N[C@H](C)C(=O)N[C@@H](C(=O)N[C@H](CC(N)=O)C(=O)N[C@H](CC(C)C)C(=O)N[C@H](C)C(=O)N[C@H](Cc1c[nH]c2ccccc12)C(=O)N[C@@H](C(=O)N[C@H](C)C(=O)NCC(=O)N[C@H](CC(N)=O)C(=O)N[C@H](CO)C(=O)N[C@H](CC(N)=O)C(=O)N[C@H](CCCCN)C(=O)N[C@H](Cc1c[nH]c2ccccc12)C(=O)N[C@@H](C(=O)N[C@H](Cc1c[nH]c2ccccc12)C(=O)N[C@H](CCCCN)C(=O)O)[C@H](C)O)[C@H](C)O)C(C)C)[C@H](C)O)[C@H](C)O — IC50 (cell death; PI staining flow cytometry; MEC1; 90 min): 1800 nM
CC(C)CS[C@H]1[C@H](O)[C@@H](N)[C@@H](O[C@H]2[C@H](O[C@@H]3O[C@H](CO)[C@@H](O[C@H]4O[C@@H](CN)[C@@H](O)[C@H](O)[C@H]4N)[C@H]3O)[C@@H](O)[C@H](N)C[C@@H]2N)O[C@@H]1CO — IC50 (bacterial hybrid ribosome, human cytoplasmic A site; cell-free translation, inhibitor): 161 µg/mL
Cc1cc(Nc2cc(CN(C)C)cc(NC(=O)c3cc(CN(C)C)cc(Nc4ccnc5ccccc45)c3)c2)nc(N)n1 — IC50 (human DNA polymerase theta; inhibitor): 14000 nM
CCCCCCCCC(=O)NCc1ccc(O)c(OC)c1 — IC50 (mouse mAb 1-G12; antibody binding, indirect competitive ELISA; added: coating antigen 1-OVA): 0.383 µg/mL
COCO[C@H]1[C@H](O)[C@@H](N)[C@@H](O[C@H]2[C@H](O[C@@H]3O[C@H](CO)[C@@H](O[C@H]4O[C@@H](CN)[C@@H](O)[C@H](O)[C@H]4N)[C@H]3O)[C@@H](O)[C@H](N)C[C@@H]2N)O[C@@H]1CO — IC50 (Mycobacterium smegmatis ribosome G1491C; translation, cell-free luciferase synthesis): 167 ± 11.3 µg/mL
CC[C@@H](C)[C@@H](NC(=O)[C@@H](CCCCN)NC(=O)[C@H](NC(=O)[C@@H](CCC(N)=O)NC(=O)[C@@H](CCCNC(=N)N)NC(=O)[C@@H](CC(C)C)NC(=O)CNC(=O)[C@@H](Cc1ccccc1)NC(=O)CNC(=O)[C@@H](Cc1ccc(O)cc1)NC(=O)CNC(=O)[C@@H](CCCCN)NC(=O)[C@H](NC(=O)[C@@H](Cc1ccccc1)NC(=O)[C@H](NC(=O)[C@@H](CC(=O)O)NC(=O)[C@@H](CCCNC(=N)N)NC(=O)[C@@H](C)NC(=O)[C@@H](CO)NC(=O)[C@@H](CCCCN)NC(=O)CNC(=O)[C@@H](CC(C)C)NC(=O)[C@@H](CC(=O)O)NC(=O)[C@@H](C)NC(=O)[C@@H](Cc1ccc(O)cc1)NC(=O)[C@H](NC(=O)[C@H]1CCCN1C(=O)[C@H]1CCCN1C(=O)[C@H](NC(=O)[C@@H](C)NC(=O)[C@H](N)CCSC)C(C)C)[C@H](C)O)C(C)C)[C@H](C)O)[C@H](C)CC)C(=O)N[C@H](Cc1c[nH]c2ccccc12)C(=O)N[C@H](Cc1ccccc1)C(=O)N[C@H](CCC(N)=O)C(=O)N[C@H](CC(N)=O)C(=O)N[C@H](CCCNC(=N)N)C(=O)N[C@H](CCCNC(=N)N)C(=O)N[C@H](CCSC)C(=O)N[C@H](CCCCN)C(=O)N[C@H](Cc1c[nH]c2ccccc12)C(=O)N[C@H](CCCCN)C(=O)N[C@H](CCCCN)C(=O)O — IC50 (cell death; PI staining flow cytometry; MEC1; 90 min): 2200 nM
NC[C@@H]1O[C@H](O[C@H]2[C@@H](O)[C@H](O[C@@H]3[C@@H](O)[C@H](N)C[C@H](N)[C@H]3O[C@H]3O[C@H](CO)[C@@H](OCC(O)CO)[C@H](O)[C@H]3N)O[C@@H]2CO)[C@H](N)[C@@H](O)[C@@H]1O (some centres unmarked) — IC50 (Mycobacterium smegmatis ribosome G1491A; translation, cell-free luciferase synthesis): 2.57 ± 0.48 µg/mL
CC[C@@H]1CN2CCc3c([nH]c4cccc(OC)c34)[C@H]2C[C@@H]1/C(=C\OC)C(=O)OC — IC50 (rabbit anti-mitragynine polyclonal antibody; antigen binding, competitor, competitive indirect ELISA; 0.001 to 50.0 µg/mL): 2.29 µg/mL

Some of these lines once more:
CC(C)S[C@H]1[C@H](O)[C@@H](N)[C@@H](O[C@H]2[C@H](O[C@@H]3O[C@H](CO)[C@@H](O[C@H]4O[C@@H](CN)[C@@H](O)[C@H](O)[C@H]4N)[C@H]3O)[C@@H](O)[C@H](N)C[C@@H]2N)O[C@@H]1CO — IC50 (wild-type bacterial ribosome; cell-free translation, inhibitor): 0.1 µg/mL
CC(=O)N[C@H]1CSC(=O)[C@H](Cc2ccccc2)NC(=O)[C@H](Cc2ccccc2)NC(=O)CCCCCCCNC1=O — IC50 (AgrC (Staphylococcus aureus); reporter gene, inhibitor; Staphylococcus aureus, AH1677 (USA300 LAC); 24 h): 340 nM
CCCS[C@H]1[C@H](O)[C@@H](N)[C@@H](O[C@H]2[C@H](O[C@@H]3O[C@H](CO)[C@@H](O[C@H]4O[C@@H](CN)[C@@H](O)[C@H](O)[C@H]4N)[C@H]3O)[C@@H](O)[C@H](N)C[C@@H]2N)O[C@@H]1CO — IC50 (bacterial hybrid ribosome, human mitochondrial A1555G A site; cell-free translation, inhibitor): 110 µg/mL
